Published values collected from several papers.
Lines come from different studies, so protocols differ. “And” joins repeats or separate records; there may be more than shown. Numbers after ± are the reported error. Converted amounts (≈) assume the structure as drawn.

C[C@]12CC[C@@H]3c4ccc(O)cc4CC[C@H]3[C@@H]1CC[C@@H]2O — ABA level (Arabidopsis thaliana; shoots; 1 µM): 48 pmol/g dry weight and 40.8 pmol/g dry weight and 49.1 pmol/g dry weight and 44.2 pmol/g dry weight
CS(=O)(=O)CCCn1c(Cn2c(=O)n(CC(F)(F)F)c3ccncc32)cc2cc(Cl)ccc21 — LS mean difference vs placebo (respiratory syncytial virus; RT-qPCR; hospitalized infants 1-24 months, nasal swab; oral, 2, 1.5 or 1 mg/kg daily, day 14, low dose by age cohort; baseline: placebo): -0.35 log10 copies/mL
CCCCCC[C@H]1C(=O)O[C@H](C)[C@H](NC(=O)c2cccc(NC=O)c2O)C(=O)O[C@@H](C)[C@@H]1OC(=O)CC(C)C — IC50 (Bovine alphaherpesvirus 1; viral replication; MDBK, wild type): 12 nM
C[C@@H](O[C@H]1OCCN(Cc2n[nH]c(=O)[nH]2)[C@H]1c1ccc(F)cc1)c1cc(C(F)(F)F)cc(C(F)(F)F)c1 — IC50 (Human immunodeficiency virus 1; viral replication; PBMC, subtype H isolate BCF-KITA, R5, NSI): 5970 nM
C[N+](C)(C)CCCCCCN(CCCCCC[N+](C)(C)C)c1ccc(/C=C/c2ccc(/C=C/c3ccc(/C=C/c4ccc(N(CCCCCC[N+](C)(C)C)CCCCCC[N+](C)(C)C)cc4)cc3)cc2)cc1 — viability reduction (Schistosoma mansoni; microscopic viability scoring; newly transformed schistosomula; 10 µM, 72 h, prescreen): 48.3%
C[C@]12CC[C@H](O)C[C@H]1CC[C@@H]1[C@@H]2[C@H](O)C[C@]2(C)[C@@H](c3ccc(=O)oc3)CC[C@]12O — IC50 (Bovine alphaherpesvirus 1; viral replication; MDBK): 390 nM
CCOC(=O)C1=C(CN2CCOCC2)NC(c2nccs2)=NC1c1ccc(F)cc1Br (centres unmarked) — maximum change in serum pgRNA (Hepatitis B virus; item: HBV pgRNA; chronic HBV infection patients; 120 mg/day, 28 days, together with: ritonavir 100 mg/day; baseline: baseline): -1.28 log10 copies/mL
C[C@H](NC(=O)[C@H](CCCNC(=N)N)NC(=O)[C@H](Cc1c[nH]c2ccccc12)NC(=O)[C@H](CCCNC(=N)N)NC(=O)[C@H](Cc1c[nH]c2ccccc12)NC(=O)[C@H](Cc1c[nH]c2ccccc12)NC(=O)[C@H](Cc1c[nH]c2ccccc12)NC(=O)[C@H](CCCNC(=N)N)NC(=O)[C@H](Cc1c[nH]c2ccccc12)NC(=O)[C@@H](N)CCCNC(=N)N)C(N)=O — MIC (Candida albicans; broth microdilution; SP3931, RPMI 1640-MOPS; 48 h, 30 °C): 4 µM
CNCC(=O)N[C@@H](CO)C(=O)N[C@H]1[C@H](O)[C@@H](O)[C@H](n2ccc(N)nc2=O)O[C@@H]1C(N)=O — inactivation activity (Orthotospovirus tomatomaculae; viral infection, half-leaf method; Nicotiana glutinosa; 500 µg/mL): 64.7 ± 2.8%
Cn1c(=O)ccc2ccc(F)c(CCNC[C@H]3CN(c4cnc5c(n4)NC(=O)CO5)C(=O)O3)c21 — MIC90 (Achromobacter spp.): 0.12 µg/mL (≈ 0.256 µM)
COc1ccc(S(=O)(=O)Nc2ccc3c(c2)C(=O)C(=O)c2cc(NS(=O)(=O)c4ccc(OC)c(OC)c4)ccc2-3)cc1OC — viability reduction (Schistosoma mansoni; microscopic viability scoring; newly transformed schistosomula; 10 µM, 72 h, prescreen): 26.7%
CC1(C)SC2C(NC(=O)C(NC(=O)C3=C(O)C(Cc4ccc([N+](=O)[O-])cc4)NC3=O)c3ccccc3)C(=O)N2C1C(=O)O (centres unmarked) — MIC (Escherichia coli; broth microdilution; ATCC 35218, low-level TEM-1; together with: clavulanic acid 6 µg/mL): 50 µg/mL
Cn1cc2c3c1C(=O)C(N)=CC3=NCC2 — inhibition (Saccharomyces cerevisiae; cell growth, liquid culture; BY4741; 100 µM, 24 h): 3.2%
CCCCCCCC(C)(C)c1cc(O)c2cc(Cc3ccccc3O)c(=O)oc2c1 — viability reduction (Schistosoma mansoni; microscopic viability score; adult worms; 10 µM): 0%
N=C(N)c1ccc(OCc2cc(COc3ccc(C(=N)N)cc3)cc(-c3ccccc3)c2)cc1 — FICI (Escherichia coli; checkerboard; BW25113 mcr-1 plasmid; unit not given, together with: rifampicin; lower = stronger synergy): ≤ 0.039
CCOC(=O)CCCn1c(SCCO)nc2ccccc21 — viability reduction (Schistosoma mansoni; microscopic viability scoring; newly transformed schistosomula; 10 µM, 72 h, prescreen): 15.6%
Nc1ncnc2c1ncn2[C@@H]1O[C@@H]2COP(=O)(O)O[C@H]3[C@@H](O)[C@H](n4cnc5c(=O)[nH]cnc54)O[C@@H]3COP(=O)(O)O[C@H]2[C@H]1O — fold enrichment (West Nile virus; RNA sequencing Reactome analysis, item: Nicotinate metabolism (R-HSA-196807); HFF-1; concentration not given, upregulated pathways, together with: West Nile virus infection; baseline: WNV-infected without compound): 7.92
CC(=O)N[C@H]1[C@@H](O[C@@H]2O[C@H](C[C@@H](O)[C@H]3O[C@@H](n4ccc(=O)[nH]c4=O)[C@H](O)[C@@H]3O)[C@H](O)[C@H](O)[C@H]2NC(=O)/C=C/CCCCCCCCCC(C)C)O[C@H](CO)[C@@H](O)[C@@H]1O — MIC50 (Cryptococcus gattii; alamar blue; C17): < 0.1 µg/mL
Clc1ccc(-c2ccccc2/C=N/c2cccnc2Cl)cc1 — viability reduction (Schistosoma mansoni; microscopic viability scoring; newly transformed schistosomula; 10 µM, 72 h, prescreen): 6.9%
COC(=O)N[C@H](C(=O)N1CCC[C@H]1c1ncc(-c2ccc(-c3ccc(-c4cnc([C@@H]5CCCN5C(=O)[C@@H](NC(=O)OC)C(C)C)[nH]4)cc3)cc2)[nH]1)C(C)C — combination index (Hepatitis C virus; replicon cells, genotype 1a; 50% effect level, together with: NS3 inhibitor, ratio 1:1): 1.15
Cc1c2c(nn1C)CSCc1cc(n(C)n1)CSc1cc(c3ccccc3c1)OCCCc1c(C(=O)O)n(C)c3c-2c(Cl)ccc13 — log2 fold change (Staphylococcus aureus; label-free quantitative proteomics, item: SAOUHSC_01833 protein; SA113; concentration not given; baseline: untreated control): 5.55
C[C@@H]1C[C@H](O)[C@]2(O)O[C@@H]3C[C@@]4(C=O)[C@@H](CC[C@@H]5[C@@H]4CC[C@]4(C)[C@@H](C6=CC(=O)OC6)CC[C@]54O)C[C@H]3O[C@@H]2O1 — viability effect (Schistosoma mansoni; microscopic viability score; adult worms; 1 µM, 72 h): 97%
Nc1ncnc2c([C@@H]3N[C@H](CO)[C@@H](O)[C@H]3O)c[nH]c12 — inhibition (Rhinovirus A; viral replication; HRV2 HGP; 3 µM): 51.3%
COc1cc2c(cc1OCc1ccccc1)oc(=O)c1c(O)cc(OCc3ccccc3)cc12 — viability reduction (Schistosoma mansoni; microscopic viability scoring; newly transformed schistosomula; 10 µM, 72 h, prescreen): 14.3%
CC(C)C[C@H](NC(=O)[C@H](CCN)NC(=O)[C@H](CCN)NC(=O)[C@@H](Cc1ccccc1)NC(=O)[C@H](CC(C)C)NC(=O)[C@H](CCN)NC(=O)[C@H](CCN)NC(=O)[C@@H](CCN)NC(=O)[C@@H](N)CSCCOC(=O)c1ccc(C(C)(C)C)cc1)C(N)=O — MBC (Acinetobacter calcoaceticus; BHI agar spot plating; 24 h, 37 °C): 32 µM
COc1cnc(OC)n2nc(NS(=O)(=O)c3c(OCC(F)F)cccc3C(F)(F)F)nc12 — stem length inhibition (Arabidopsis thaliana; Col-0, seed germination, dark; 50 µg/mL, 7 days, 22 °C): 100%
CC[C@H](C)[C@H](NC(=O)[C@H](C)NC(=O)[C@H](CCCCN)NC(=O)[C@H](CC(C)C)NC(=O)[C@H](C)NC(=O)[C@@H](NC(=O)[C@H](Cc1c[nH]cn1)NC(=O)[C@H](CC(C)C)NC(=O)[C@@H](NC(=O)[C@@H](NC(=O)[C@H](CCCCN)NC(=O)[C@H](C)NC(=O)[C@H](C)NC(=O)[C@H](CO)NC(=O)[C@H](CCCCN)NC(=O)[C@H](Cc1ccccc1)NC(=O)[C@@H](NC(=O)[C@H](CCCCN)NC(=O)[C@H](CC(C)C)NC(=O)[C@H](Cc1ccccc1)NC(=O)[C@H](CO)NC(=O)[C@H](CCCCN)NC(=O)[C@H](Cc1c[nH]c2ccccc12)NC(=O)[C@H](CCCCN)NC(C)=O)[C@@H](C)O)[C@@H](C)O)C(C)C)[C@@H](C)O)C(=O)N[C@@H](CO)C(=O)N[C@@H](CO)C(N)=O — MIC90 (Streptococcus pyogenes; erythromycin-sensitive; 21 strains): 32 µg/mL (≈ 10.9 µM)
CN[C@H](CC(C)C)C(=O)N[C@H]1C(=O)N[C@@H](CC(N)=O)C(=O)N[C@H]2C(=O)N[C@H]3C(=O)N[C@H](C(=O)N[C@H](C(=O)O)c4cc(O)cc(O)c4-c4cc3ccc4O)[C@H](O)c3ccc(c(Cl)c3)Oc3cc2cc(c3O[C@@H]2O[C@H](CO)[C@@H](O)[C@H](O)[C@H]2O[C@H]2C[C@](C)(N)[C@H](O)[C@H](C)O2)Oc2ccc(cc2Cl)[C@H]1O — MBC (Staphylococcus aureus; CAAS-2019-19 clinical blaZ-resistant isolate, PBS): 4 µg/mL
CCCCCc1cc(OC)c2cc(Cc3cccc(OC)c3)c(=O)oc2c1 — viability reduction (Schistosoma mansoni; microscopic viability scoring; newly transformed schistosomula; 10 µM, 72 h, prescreen): 28.6%
N=C(N)NCCC[C@H](NC(=O)CCCCCNC(=O)[C@H](CCCNC(=N)N)NC(=O)[C@H](CCCNC(=N)N)NC(=O)CCCCCNC(=O)[C@H](CCCNC(=N)N)NC(=O)[C@H](CCCNC(=N)N)NC(=O)CCCCCNC(=O)[C@H](CCCNC(=N)N)NC(=O)[C@H](CCCNC(=N)N)NC(=O)CCCCCNC(=O)[C@@H](N)CCCNC(=N)N)C(=O)NCCCCCC(=O)NCCC(=O)O — MIC (Escherichia coli; ATCC 25922; 1 h, 37 °C, after 12.5% human serum): 96 µM
NC(=O)c1nc(F)c[nH]c1=O — EC50 (Dengue virus; viral replication; BHK-21, DENV4; 120 h): 5.2 µM
CC[C@H](C)[C@H](NC(=O)[C@H](CCCNC(=N)N)NC(=O)[C@H](Cc1c[nH]c2ccccc12)NC(=O)[C@H](CCCNC(=N)N)NC(=O)[C@H](Cc1c[nH]c2ccccc12)NC(=O)[C@H](Cc1c[nH]c2ccccc12)NC(=O)[C@H](Cc1c[nH]c2ccccc12)NC(=O)[C@H](CCCNC(=N)N)NC(=O)[C@H](Cc1c[nH]c2ccccc12)NC(=O)[C@@H](N)CCCNC(=N)N)C(N)=O — MIC (Candida albicans; broth microdilution; alveolar fluid isolate, RPMI 1640-MOPS; 48 h, 30 °C): 16 µM

Excerpt of the above:
CNCC(=O)N[C@@H](CO)C(=O)N[C@H]1[C@H](O)[C@@H](O)[C@H](n2ccc(N)nc2=O)O[C@@H]1C(N)=O — inactivation activity (Orthotospovirus tomatomaculae; viral infection, half-leaf method; Nicotiana glutinosa; 500 µg/mL): 64.7 ± 2.8%
Nc1ncnc2c([C@@H]3N[C@H](CO)[C@@H](O)[C@H]3O)c[nH]c12 — inhibition (Rhinovirus A; viral replication; HRV2 HGP; 3 µM): 51.3%
CCOC(=O)CCCn1c(SCCO)nc2ccccc21 — viability reduction (Schistosoma mansoni; microscopic viability scoring; newly transformed schistosomula; 10 µM, 72 h, prescreen): 15.6%
